Measurements from different studies.
Several values in a cell are separate wells, animals, samples, runs or records. ± marks the error that the study gave.
TDP1: Tyrosyl-DNA phosphodiesterase 1 (TDP1, Homo sapiens, UniProt Q9NUW8)
PLIN3: Perilipin-3 (PLIN3, Homo sapiens, UniProt O60664)
CASP6: Caspase-6 (CASP6, Homo sapiens, UniProt P55212)
Uncharacterized protein: Uncharacterized protein (Trypanosoma brucei brucei, UniProt Q386Q8)

SMILES | target | test | test system | conditions | scale | quantity | result
COc1ccnc(C)c1C | Nicotinamide N-methyltransferase, SAH-bound (NNMT, Homo sapiens, UniProt P40261) | differential scanning fluorimetry |  | 1 mM, together with: 100 µM SAH |  | ΔTm | 5.8 °C
O=C(O)c1ccc(Nc2c(-c3ccccc3)nc3ccc(CON=Cc4cccc5cccnc45)cn23)cc1 | TDP1 | enzyme activity, inhibitor |  | 100 µM, unpurified compound |  | inhibition | 94.9%
CCCCCCCCCCCCC/C=C/C=O | PLIN3 | competitive isoTOP-ABPP, measured: M6PRBP1 cysteine peptide | Ramos soluble proteome | 100 µM, together with: iodoacetamide probe | relative to: DMSO over compound-treated, higher = stronger cysteine blockade | isoTOP-ABPP competition ratio | 1.3
CC(C)[C@@H]1NC(=O)[C@H](Cc2ccccc2)NC(=O)CSC[C@@H](C(N)=O)NC(=O)[C@H](CCC(=O)O)NC(=O)[C@H](CO)NC(=O)[C@H](Cc2c[nH]c3cccc(Cl)c23)NC(=O)[C@H](C2CCCCC2)NC(=O)[C@H](C(C)C)NC(=O)[C@H](Cc2ccc(O)cc2)NC(=O)[C@H](CC(=O)O)NC(=O)[C@H](Cc2c[nH]c3ccccc23)NC(=O)[C@H](Cc2ccc(N)nc2)NC(=O)[C@H](Cc2c[nH]c3ccc(Cl)cc23)NC(=O)[C@H](CCC(=O)O)NC1=O | Interleukin-1 receptor-like 2 (IL1RL2, Homo sapiens, UniProt Q9HB29) | reporter gene (SEAP), inhibitor, HEK-Blue IL-36R reporter | HEK-Blue IL-36R cells | 0.0017 µM, 6 h, together with: IL-36β 1 ng/mL |  | remaining activity | 93.1%
CC1CN(c2ccc(C=NOCc3ccc4nc(-c5ccccc5)c(Nc5ccc(C(=O)O)cc5)n4c3)cc2[N+](=O)[O-])CCO1 (stereo not shown) | TDP1 | enzyme activity, inhibitor |  | 100 µM, unpurified compound |  | inhibition | -6.5%
[3H]C([3H])([3H])OC1(C2=NCCN2)COc2ccccc2O1 (stereo not shown) | Adra2a (Mus musculus, UniProt Q01338) | [3H]compound saturation binding | HEK293 membranes |  |  | Bmax | 33.7 ± 2.2 pmol/mg protein
CC(=O)N[C@@H](CC(=O)O)C(=O)N[C@@H](CO)C(=O)N[C@H](C(=O)N[C@@H](CC(=O)O)C(=O)COC(=O)c1c(C)cccc1C)C(C)C | CASP6 | enzyme activity, inhibitor |  |  |  | kinact/KI | 85000 M⁻¹ s⁻¹
COc1ccc(C(=O)CC2(O)C(=O)Nc3cc(Cl)cc(Cl)c32)cc1OC (stereo not shown) | Uncharacterized protein | inhibitor, coupled colorimetric | Trypanosoma brucei |  |  | Hill slope | -9.09
C=CC(=O)NC[C@H](NC(=O)[C@H](CC1CCCCC1)NC(=O)[C@H](CCC(N)=O)NC(C)=O)C(=O)N[C@@H](CC(C)C)C(=O)N[C@@H](Cc1ccccc1)C(=O)O | Beta sliding clamp (Escherichia coli, UniProt P0A988) | covalent adduct formation, mass spectrometry |  | covalent step |  | activation energy | 17.9 ± 7 kcal/mol
O=[N+]([O-])c1cc(Br)cc([N+](=O)[O-])c1NS(=O)(=O)c1ccc(Br)cc1 | HAB1 (Arabidopsis thaliana, UniProt Q9CAJ0) | inhibitor |  | 50 µM, no PYL receptor | higher = more activity | phosphatase activity | 1.07 a.u. and 1.08 a.u. and 0.985 a.u.
COc1ccc(OC)c(C2=Nn3c(nnc3C3CCCCC3)SC2)c1 | Uncharacterized protein | inhibitor, coupled colorimetric | Trypanosoma brucei |  |  | Hill slope | 0.65
CCCCOc1ccc(C(=O)OCCN2CC=CCC2)cc1 | CHRM5 (Homo sapiens, UniProt P08912) |  | membranes | 10 µM, 15 h, no carbachol | relative to: control | basal binding | 1.14 ± 0.04 fold
CC(C)Oc1cc(Cl)ccc1CNc1cc(-c2ccccc2)nc2ncnn12 | GPR3 (Homo sapiens, UniProt P46089, V155A) | cAMP level, cAMP GloSensor |  | 10 nM | higher = more cAMP | cAMP luminescence | 33000 a.u. and 24100 a.u. and 30100 a.u. and 23600 a.u.
COC(=O)[C@@]1(C)C=C(C(=O)Nc2cccc(C(=O)Nc3ccc(Nc4nccc(-c5cccnc5)n4)c(C)c3)c2)C(=O)CC1 | MAPK8 (Homo sapiens, UniProt P45983) | enzyme activity, inhibitor |  | 0.006774 µM, 6 h, unit not given, together with: GSH 10 mM pre-incubation | relative to: vehicle | remaining activity | 0.741
CCCCc1nc(C=NOCc2ccc(-c3nc4cc(-c5ccccc5)ccn4c3Nc3ccc(C(=O)O)cc3)cc2)c[nH]1 (mixture of isomers) | TDP1 | enzyme activity, inhibitor |  | 100 µM, unpurified compound |  | inhibition | 57.1%
CC(/C=C/C(=O)NO)=C\[C@@H](C)C(=O)c1ccc(N(C)C)cc1 | HDAC8 (Homo sapiens, UniProt Q9BY41) | ITC | Tris-HCl buffer | concentration not given, 278 K |  | binding stoichiometry | 0.8
NC(=O)c1cccc(CN(C(=O)NC(CN2CCCCC2)c2ccccc2)C(CN2CCCCC2)c2ccccc2)c1 (stereo not shown) | OPRK1 (Homo sapiens, UniProt P41145) | beta-arrestin recruitment |  |  | relative to: reference agonist | delta log(tau/KA) | -0.96
CCCCCC(O)/C=C/C=O (stereo not shown) | PLIN3 | competitive isoTOP-ABPP | Ramos soluble proteome | 100 µM, 60 min, together with: iodoacetamide probe | relative to: DMSO over compound-treated, higher = stronger cysteine blockade | isoTOP-ABPP competition ratio | 5.2
CC[C@H](C)[C@@H]1NC(=O)[C@H](Cc2ccccc2)NC(=O)[C@H](CCC(=O)O)NC(=O)[C@H](CCCNC(=N)N)NC(=O)CNC(=O)[C@@H](NC(=O)[C@H](CC(C)C)NC(=O)[C@H](CCCNC(=N)N)NC(=O)[C@@H](NC(=O)CNC(=O)[C@H](Cc2ccc(O)cc2)NC(=O)[C@@H]2CCCN2C(=O)[C@H](C)NC(=O)[C@H](C)NC(=O)[C@@H](N)CCCNC(=N)N)C(C)C)CSSC[C@@H]2NC(=O)[C@@H](NC(=O)[C@H](CO)NC(=O)[C@H](CO)NC(=O)[C@H](CO)NC(=O)[C@H](CC(C)C)NC(=O)CNC(=O)[C@H](C)NC(=O)[C@H](CC(C)C)NC(=O)[C@@H](NC(=O)[C@@H](N)CC(=O)O)C(C)C)CSSC[C@H](NC(=O)CNC(=O)[C@H](Cc3c[nH]c4ccccc34)NC(=O)[C@H](CCCCN)NC2=O)C(=O)N[C@@H](CO)C(=O)N[C@@H](CCCCN)C(=O)N[C@@H](CO)C(=O)N[C@@H](CCC(=O)O)C(=O)N[C@@H]([C@@H](C)CC)C(=O)N[C@@H](CO)C(=O)N[C@@H](CO)C(=O)N[C@@H](CC(C)C)C(=O)N[C@H](C(=O)O)CSSC[C@@H](C(=O)NCC(=O)NCC(=O)N[C@@H](CO)C(=O)N[C@@H](CCCNC(=N)N)C(=O)N[C@@H](Cc2c[nH]c3ccccc23)C(=O)O)NC(=O)[C@H]([C@@H](C)O)NC(=O)[C@H](Cc2ccccc2)NC(=O)[C@H]([C@@H](C)CC)NC(=O)[C@H](C(C)C)NC(=O)[C@H](C)NC(=O)[C@H](CCCNC(=N)N)NC1=O | RXFP4 (Homo sapiens, UniProt Q8TDU9, E100A) |  |  | E100A mutant | relative to: wild type | ΔpEC50 | inactive
CC(C)C[C@@H]1NC(=O)[C@H](Cc2ccccc2)NC(=O)[C@H](CO)NC(=O)[C@H](Cc2ccccc2)NC(=O)CSC[C@@H](C(=O)N(C)[C@@H](Cc2ccccc2)C(N)=O)NC(=O)[C@H](Cc2c[nH]c3ccccc23)NC(=O)[C@H](Cc2c[nH]cn2)NC(=O)[C@H](Cc2ccc(O)cc2)NC1=O | Bromodomain-containing protein 4, BD1 (BRD4, Homo sapiens, UniProt O60885) | thermal stability, DSF |  | 100 µM |  | ΔTm | 0.69 °C
CC(C=CC=C(C)C=CC1=C(C)CCCC1(C)C)=CC=O | Rhodopsin (RHO, Homo sapiens, UniProt P08100, P23H) | ER retention, immunostaining co-localization, measured: opsin with calnexin | COS-7 transfected P23H | 1.00 µM |  | Pearson correlation coefficient | 0.76
Cc1cnc2nc1Nc1cccc(c1)COC/C=C/COCc1cc(ccc1OCCN1CCOCC1)N2 | EGFR (Homo sapiens, UniProt P00533) | binding |  | 0.1 µM |  | remaining binding | 77%
CC(=O)N[C@@H](C(=O)N[C@@H](CCCC(=O)O)C(=O)N[C@@H](CCC1CCCCC1)C(=O)N[C@@H](CC(=O)O)C(=O)COC(=O)c1c(C)cccc1C)C1CCCCC1 | CASP6 | enzyme activity, inhibitor |  |  |  | kinact/KI | 8000 M⁻¹ s⁻¹
N[C@H]1CC[C@H](Nc2nccc(-c3cccnc3Oc3ccc(NC(=O)NC4CC4)c4ccccc34)n2)CC1 | A-kinase anchor protein 12 (AKAP12, Homo sapiens, UniProt Q02952) | kinobead competition pulldown, measured: AKAP12 | HEK293/HCT116 lysate mixture | 10 µM, 1 h, 4 °C | lower = stronger competition | log2 LFQ intensity | 20 and 19.2 and 19 and 19.6
O=C(O)c1ccc(Nc2c(-c3ccc(CON=Cc4cccc(-n5cccc5)c4)cc3)nc3cc(-c4ccccc4)ccn23)cc1 | TDP1 | enzyme activity, inhibitor |  | 100 µM, unpurified compound |  | inhibition | 21.8%
C=C(CC[C@@H](C)[C@H]1CC[C@@]2(C)C3=CC[C@H]4C(C)(C)C(=O)CC[C@]4(C)C3=C[C@@H](O[C@@H]3O[C@H](CO)[C@@H](O)[C@H](O)[C@H]3O)[C@]12C)C(C)C(=O)O (stereo partly shown) | TAS2R46 (Homo sapiens, UniProt P59540) | agonist, calcium mobilisation | HEK cells with Galpha16gust44 | pH 7.4 |  | threshold concentration | 1 µM
CCOc1cccc2ccc(C=NOCc3ccc4nc(-c5ccccc5)c(Nc5ccc(C(=O)O)cc5)n4c3)nc12 (mixture of isomers) | TDP1 | enzyme activity, inhibitor |  | 100 µM, unpurified compound |  | inhibition | -20.6%
COC(=O)Cc1cc2c(cc1C(=O)c1ccccc1Cl)OCO2 | Gria1 (Rattus norvegicus, UniProt P19490) | glutamate-evoked current, whole-cell patch clamp | HEK-293T | concentration not given, weighted tau, 500 ms pulse, together with: glutamate |  | desensitization time constant | 1.9 ± 0.1 ms

Some of these lines once more:
SMILES | target | test | test system | conditions | scale | quantity | result
CC1CN(c2ccc(C=NOCc3ccc4nc(-c5ccccc5)c(Nc5ccc(C(=O)O)cc5)n4c3)cc2[N+](=O)[O-])CCO1 (stereo not shown) | TDP1 | enzyme activity, inhibitor |  | 100 µM, unpurified compound |  | inhibition | -6.5%
[3H]C([3H])([3H])OC1(C2=NCCN2)COc2ccccc2O1 (stereo not shown) | Adra2a (Mus musculus, UniProt Q01338) | [3H]compound saturation binding | HEK293 membranes |  |  | Bmax | 33.7 ± 2.2 pmol/mg protein
